# Experimental data gathered from unrelated publications.
# Numbers after ± are the reported error.
SMILES,assay,test system,setting,how to read,quantity,result
C=C1C(=O)OC2C1CCC(Cn1cc(-c3cc(C(F)(F)F)cc(C(F)(F)F)c3)nn1)=C1CCC(C)(O)C12 (centres unmarked),,"blast crisis CML mouse, bone marrow",dose not given,,leukaemic stem cells,no effect
COc1ccc2c(c1)c(CC(=O)OCC(=O)c1ccccc1)c(C)n2C(=O)c1ccc(Cl)cc1,,"BALB/c mice, acetic acid writhing","intraperitoneal, 30 mg/kg, 20 min count",,writhing count,9.33 ± 1.33
CCCC[C@H](NC(=O)[C@@H](NC(=O)[C@H](CC(=O)O)NC(=O)[C@H](CCC(N)=O)NC(=O)[C@H](CC(C)C)NC(=O)[C@H](CC(C)C)NC(=O)[C@H](CCCN)NC(=O)[C@H](CCCNC(=N)N)NC(=O)[C@H](C)NC(=O)[C@H](CO)NC(=O)[C@H](CC(C)C)NC(=O)[C@H](CCC(N)=O)NC(=O)[C@H](CC)NC(=O)[C@H](CC(C)C)NC(=O)[C@@H](NC(=O)[C@H](CCCN)NC(=O)[C@H](CCCNC(=N)N)NC(=O)[C@H](Cc1ccc(O)cc1)NC(=O)[C@H](CO)NC(=O)[C@H](CCC(N)=O)NC(=O)[C@@H](NC(=O)[C@H](Cc1ccccc1)NC(=O)[C@@H](NC(=O)[C@H](C)NC(=O)[C@H](CC(=O)O)NC(=O)[C@@H](C)NC(=O)[C@H](Cc1ccc(O)cc1)NC)[C@@H](C)CC)[C@@H](C)O)C(C)C)[C@@H](C)CC)C(=O)N[C@@H](CC(=O)O)C(=O)N[C@@H](CCCNC(=N)N)C(=O)NC,"GH release, ELISA","male Sprague-Dawley rat, anaesthetised, serum","subcutaneous, 3 µg/kg, 0 min",,serum GH level,39.4 ± 5.3 ng/mL
C[C@H](NC(=O)COC(=O)[C@H](C)NC(=O)CO)C(=O)O,,water,"pH 4, 37 °C",,depolymerization rate constant,0.011 h⁻¹
CCCC[C@H](NC(=O)[C@@H](NC(=O)[C@H](CC(=O)O)NC(=O)[C@H](CCC(N)=O)NC(=O)[C@H](CC(C)C)NC(=O)[C@H](CC(C)C)NC(=O)[C@H](CCCN)NC(=O)[C@H](CCCNC(=N)N)NC(=O)[C@H](C)NC(=O)[C@H](CO)NC(=O)[C@H](CC(C)C)NC(=O)[C@H](CCC(N)=O)NC(=O)[C@H](CC)NC(=O)[C@H](CC(C)C)NC(=O)[C@@H](NC(=O)[C@H](CCCN)NC(=O)[C@H](CCCNC(=N)N)NC(=O)[C@H](Cc1ccc(O)cc1)NC(=O)[C@H](CO)NC(=O)[C@H](CCC(N)=O)NC(=O)[C@@H](NC(=O)[C@H](Cc1ccccc1)NC(=O)[C@@H](NC(=O)[C@H](C)NC(=O)[C@H](CC(=O)O)NC(=O)[C@@H](C)NC(=O)[C@H](Cc1ccc(O)cc1)NC)[C@@H](C)CC)[C@@H](C)O)C(C)C)[C@@H](C)CC)C(=O)N[C@@H](CC(=O)O)C(=O)N[C@@H](CCCNC(=N)N)C(=O)NCCCCC(N)=O,"GH release, ELISA","male Sprague-Dawley rat, anaesthetised, serum","subcutaneous, 3 µg/kg, 0 min",,serum GH level,43.7 ± 6.4 ng/mL
COc1ccc(-c2oc3ccccc3c(=O)c2OCc2ccccc2)cc1,,diabetic rat,"7.5 mg/kg, 28 days, p-nitrophenyl β-glucoside induced",,serum LDL cholesterol,97.9 ± 3.1 mg/dL
CCCC[C@H](NC(=O)[C@@H](NC(=O)[C@H](CC(=O)O)NC(=O)[C@H](CCC(N)=O)NC(=O)[C@H](CC(C)C)NC(=O)[C@H](CC(C)C)NC(=O)[C@H](CCCN)NC(=O)[C@H](CCCNC(=N)N)NC(=O)[C@H](C)NC(=O)[C@H](CO)NC(=O)[C@H](CC(C)C)NC(=O)[C@H](CCC(N)=O)NC(=O)[C@H](CC)NC(=O)[C@H](CC(C)C)NC(=O)[C@@H](NC(=O)[C@H](CCCN)NC(=O)[C@H](CCCNC(=N)N)NC(=O)[C@H](Cc1ccc(O)cc1)NC(=O)[C@H](CO)NC(=O)[C@H](CC(N)=O)NC(=O)[C@@H](NC(=O)[C@H](Cc1ccccc1)NC(=O)[C@@H](NC(=O)[C@H](C)NC(=O)[C@H](CC(=O)O)NC(=O)[C@@H](C)NC(=O)[C@H](Cc1ccc(O)cc1)NC)[C@@H](C)CC)[C@@H](C)O)C(C)C)[C@@H](C)CC)C(=O)N[C@@H](CC(=O)O)C(=O)NCCCCNC(=N)N,"GH release, ELISA","male Sprague-Dawley rat, anaesthetised, serum","subcutaneous, 3 µg/kg, 0 min",,serum GH level,41.1 ± 5.6 ng/mL
C=CC(=O)N1C[C@H](C)N(c2nc(OC[C@@]34CCCN3C[C@H](F)C4)nc3c(F)c(-c4ccc(F)c5sc(N)c(C#N)c45)c(C(F)(F)F)cc23)C[C@H]1C,,mouse MIA PaCa-2 xenograft,"oral, 0.3 mg/kg daily, 28 days",,tumour growth inhibition,49%
Cc1cc(O)c(C=O)c2c1C(=O)Oc1c(CO)c(O)c3c(c1O2)C(O)OC3=O (centres unmarked),,"streptozotocin-induced diabetic male rats, serum","10 mg/kg, 5 weeks",,serum insulin,6.27 ± 0.16 mIU/L
CC[C@H]1[C@@H](O)[C@@H]2[C@H](CC[C@]3(C)[C@@H]([C@H](C)CCOS(=O)(=O)[O-])CC[C@@H]23)[C@@]2(C)CC[C@@H](O)C[C@@H]12.[Na+],histology,"ob/ob NASH mouse model, liver","oral, 10 mg/kg once daily, 8 weeks, scale 0 to 2",direction not given,ballooning score,0.2 ± 0.1
CC[C@H](C)[C@H](NC(=O)[C@H](Cc1c[nH]cn1)NC(=O)[C@@H]1CSSC[C@H](NC(=O)[C@H](Cc2c[nH]cn2)NC(=O)[C@H](Cc2ccccc2)NC(=O)CN2CCN(CC(=O)O)CCN(CC(=O)O)CCN(CC(=O)O)CC2)C(=O)N2C[C@H](O)C[C@H]2C(=O)N[C@@H](Cc2ccc(O)c(Cl)c2)C(=O)N[C@@H](CC(=O)O)C(=O)N[C@@H](CC(C)C)C(=O)N1)C(=O)N[C@@H](CC(C)C)C(=O)NCc1ccc(CNC(=O)CN2CCN(CC(=O)O)CCN(CC(=O)O)CCN(CC(=O)O)CC2)cc1 [indium-111 labelled],PET/SPECT imaging,"rat, carotid crush thrombosis model",30 to 90 min post-injection,reference: thrombus over contralateral carotid,thrombus to contralateral ratio,> 4 fold
NS(=O)(=O)NCC(F)(F)c1ccccc1F,MES seizures,rat,oral,,ED50,44 mg/kg
CCOP(=O)(CC(=O)Nc1ccc(S(=O)(=O)N(CC(N)=O)c2ccc(N(CC(N)=O)S(=O)(=O)c3ccc(OC)cc3)c3ccccc23)cc1)OCC,"western blot, item: total Nrf2","normal mice, hippocampus and cortex","oral, 40 mg/kg once daily, 60 days",,protein level,increased
CN(C)c1ccc(-c2oc3ccccc3c(=O)c2OCc2ccccc2)cc1,,diabetic rat,"5 mg/kg, 28 days, p-nitrophenyl β-glucoside induced",,serum HDL cholesterol,46.9 ± 1.97 mg/dL
CCCC[C@H](NC(=O)[C@@H](NC(=O)[C@H](CC(=O)O)NC(=O)[C@H](CCC(N)=O)NC(=O)[C@H](CC(C)C)NC(=O)[C@H](CC(C)C)NC(=O)[C@H](CCCN)NC(=O)[C@H](CCCNC(=N)N)NC(=O)[C@H](C)NC(=O)[C@H](CO)NC(=O)[C@H](CC(C)C)NC(=O)[C@H](CCC(N)=O)NC(=O)[C@H](CC)NC(=O)[C@H](CC(C)C)NC(=O)[C@@H](NC(=O)[C@H](CCCN)NC(=O)[C@H](CCCNC(=N)N)NC(=O)[C@H](Cc1ccc(O)cc1)NC(=O)[C@H](CO)NC(=O)[C@H](CCC(N)=O)NC(=O)[C@@H](NC(=O)[C@H](Cc1ccccc1)NC(=O)[C@@H](NC(=O)[C@H](C)NC(=O)[C@H](CC(=O)O)NC(=O)[C@H](C)NC(=O)CCc1ccc(O)cc1)[C@@H](C)CC)[C@@H](C)O)C(C)C)[C@@H](C)CC)C(=O)N[C@@H](CC(=O)O)C(=O)NCCCCNC(=N)N,"GH release, ELISA","male Sprague-Dawley rat, anaesthetised, serum","subcutaneous, 3 µg/kg, 15 min",,serum GH level,230 ± 15.1 ng/mL
CC(C)c1cnc(-c2cc(Cl)ccc2F)cc1Nc1ccncc1C(=O)NC(CO)CO,item: pSMAD2,"4T1 tumour-bearing mouse, tumour",30 mg/kg twice daily,reference: vehicle,maximum inhibition,79%
COc1c2c(cc3oc(COC4OC(CO)C(O)C(O)C4O)cc(=O)c13)OC(C(C)(C)O)C2 (centres unmarked),analgesia,mouse,"oral, 2 mg/kg, 1 h",,hot plate latency,11.1 ± 1.87 s
